Measurements from different studies.
Lines come from different studies, so protocols differ. ± gives the spread as reported.
Cell line: RAW264.7

The inhibition of Fc1cc(F)cc(-c2cc3ccccc3[nH]2)c1 is reported as 23.5% (NO release, inhibitor, Griess; 50 µM, 20 h, LPS-stimulated).
With O=C(O)Cc1ccccc1Nc1c(Cl)cccc1Cl the IC50 was 23 µM (IL-6 release, inhibitor, ELISA; LPS-stimulated).
COc1ccc(S(=O)(=O)Nc2ccc(N(CC(=O)N3CCSC3=O)S(=O)(=O)c3ccc(OC)cc3)c3ccccc23)cc1 has an EC50 of 0.12 µM (NO production, inhibitor; together with: LPS 20 ng/mL).
Fc1ccc(-c2cc3ccccc3[nH]2)cc1 has a viability of 69.7 ± 3.7% (sulforhodamine B; 50 µM, 20 h; relative to: vehicle).
The IC50 of Nn1c(SCC(=O)Nc2ccc([N+](=O)[O-])cc2)nnc1-c1ccc(NC(=O)c2cccnc2)cc1 is reported as 9.68 µM (IL-6 release, inhibitor, ELISA; LPS-stimulated).
Nc1ccc2[nH]c(-c3ccccc3)cc2c1 has a viability of 100 ± 6.7% (sulforhodamine B; 50 µM, 20 h; relative to: vehicle).
For O=C(CSc1nnc(-c2ccc(NC(=O)c3cccnc3)cc2)o1)Nc1ccc(F)cc1, the IC50 was 67.2 µM (reactive oxygen species, inhibitor, fluorescence; LPS-stimulated).
For C[C@@H]1C[C@H]2[C@@H]3CCC4=CC(=O)C=C[C@]4(C)[C@@]3(F)[C@@H](O)C[C@]2(C)[C@@]1(O)C(=O)CO, the NO production was 38.1 ± 3.15% (Griess; 0.5 µM, 1 h pretreatment, together with: LPS 10 ng/mL, 24 h; relative to: LPS alone).
COC(=O)[C@H]1Cc2c([nH]c3ccccc23)CN1S(=O)(=O)c1ccc(C)cc1 gave an inhibition of less than 10% (NO release, inhibitor, Griess; 50 µM, LPS-stimulated).
Nn1c(SCC(=O)Nc2cccc(Br)c2)nnc1-c1ccc(NC(=O)c2cccnc2)cc1 has an IC50 of 3.01 µM (TNF-α release, inhibitor, ELISA; LPS-stimulated).
With CCOC(=O)c1[nH]c2cc(Cl)ccc2c1C(=O)C[C@@H](C)CCCC(C)C the mRNA level was greater than 2 fold (item: IL-10; 1 nM, 20 h, lowest effective concentration, together with: LPS/IFNγ last 4 h, linoleic acid 10 µM; relative to: untreated).
The inhibition of C#CCn1c(-c2ccccc2)cc2ccccc21 is reported as 96.9% (NO release, inhibitor, Griess; 50 µM, 20 h, LPS-stimulated).
The EC50 of C[C@H]1[C@H](C)CC[C@]2(C(=O)O)CC[C@]3(C)C(=CC[C@@H]4[C@@]5(C)CC[C@H](O)C(C)(C)[C@@H]5CC[C@]43C)[C@H]12 is reported as 9 ± 1 µM (LPS-induced NO production, inhibitor, Griess reaction; 24 h, together with: 100 ng/mL LPS).
The inhibition of CC(C)COC(=O)N1Cc2[nH]c3ccccc3c2C[C@H]1C(=O)O is reported as -3.4% (NO release, inhibitor, Griess; 50 µM, LPS-stimulated).
CC(C)C[C@H](NC(=O)[C@H](CC(C)C)NC(=O)[C@H](CCCCN)NC(=O)[C@H](CC(C)C)NC(=O)[C@@H]1CCCN1C(=O)[C@H](CCCCN)NC(=O)[C@H](CCCCN)NC(=O)[C@H](CC(C)C)NC(=O)[C@H](CC(C)C)NC(=O)[C@H](CCCCN)NC(=O)[C@H](CCCCN)NC(=O)[C@H](Cc1c[nH]c2ccccc12)NC(=O)[C@H](CCCCN)NC(=O)CNC(=O)CNC(=O)CNC(=O)[C@H](CCCNC(=N)N)NC(=O)[C@H](CCCNC(=N)N)NC(=O)[C@H](CCCNC(=N)N)NC(=O)[C@H](CCCNC(=N)N)NC(=O)[C@H](CCCNC(=N)N)NC(=O)[C@H](CCCNC(=N)N)NC(=O)[C@H](CCCNC(=N)N)NC(=O)[C@H](CCCNC(=N)N)NC(=O)[C@@H](N)CCCNC(=N)N)C(=O)N[C@@H](CCCCN)C(=O)N[C@@H](CCCCN)C(N)=O: TNF-α release “inhibited” (ELISA; 2 µM, together with: LPS 20 ng/mL).
COc1cc(OC)cc(-c2cc3ccccc3[nH]2)c1 has an inhibition of 62.6% (NO release, inhibitor, Griess; 50 µM, 20 h, LPS-stimulated).
With CC(=O)c1ccc(NC(=O)CSc2nnc(-c3ccc(NC(=O)c4cccnc4)cc3)n2N)cc1 the IC50 was 9.69 µM (reactive oxygen species, inhibitor, fluorescence; LPS-stimulated).
For ON=Cc1c(-c2ccccc2)[nH]c2ccccc12, the viability was 90.8 ± 2.4% (sulforhodamine B; 50 µM, 20 h; relative to: vehicle).
The IC50 of Cc1ccc(C)c(NC(=O)CSc2nnc(-c3ccc(NC(=O)c4cccnc4)cc3)o2)c1 is reported as 1.04 µM (IL-6 release, inhibitor, ELISA; LPS-stimulated).
CCN(CC)C(=O)Cc1c(-c2ccc(OCC[18F])cc2)nn2c(C)cc(C)nc12 — result for “tracer retention after efflux”: 21.6 ± 2.05% (1 h efflux, 37 °C; relative to: added dose).

A few entries again:
The inhibition of Fc1cc(F)cc(-c2cc3ccccc3[nH]2)c1 is reported as 23.5% (NO release, inhibitor, Griess; 50 µM, 20 h, LPS-stimulated).
With O=C(O)Cc1ccccc1Nc1c(Cl)cccc1Cl the IC50 was 23 µM (IL-6 release, inhibitor, ELISA; LPS-stimulated).
COc1ccc(S(=O)(=O)Nc2ccc(N(CC(=O)N3CCSC3=O)S(=O)(=O)c3ccc(OC)cc3)c3ccccc23)cc1 has an EC50 of 0.12 µM (NO production, inhibitor; together with: LPS 20 ng/mL).
